Experimental data gathered from unrelated publications.
Compare with care: the assays were run in different laboratories. “And” joins repeats or separate records; there may be more than shown. ± marks the error that the study gave.
rep main protease: Replicase polyprotein 1ab, main protease (rep, Severe acute respiratory syndrome coronavirus 2, UniProt P0DTD1)
Spike glycoprotein: Spike glycoprotein (Severe acute respiratory syndrome coronavirus 2, UniProt P0DTC2)

| Molecule | target or system | assay | test system | conditions | how to read | endpoint | value |
| --- | --- | --- | --- | --- | --- | --- | --- |
| COc1cccc2c1OCCCn1cc(nn1)CCN(Cc1ccc(C)s1)CCNC(=O)[C@H](Cc1ccccc1)NC2=O | Lassa mammarenavirus | viral replication | Huh-7 | 10 µM, 72 h | – | remaining activity | 56% |
| Cc1ccc2c(NC(C)c3ccccc3)nc(N3CCNCC3)nc2c1 (stereo not shown) | SARS-CoV-2 | cytopathic effect, cell-based CPE | USA_WA1/2020 | round 2, 5-point dilution | – | AC50 | 3.98 µM |
| Cc1cnccc1N1CCCN(Cc2ccc(C#CC(C)(C)O)cc2)CC1 | Lassa mammarenavirus | viral replication | Huh-7 | 10 µM, 72 h | – | remaining activity | 57% |
| Cc1cc(/C=C/C#N)cc(C)c1-n1cnc2cnc(Nc3ccc(/C=C/C#N)cc3)nc21 | HIV-1 | viral replication, single-round infection | RT mutant V106A/F227L/L234I | – | – | EC50 | < 0.0054 µM |
| FVSLAIDAYPLTKHP | human CD4 T cells | AIM | peptide | – | – | responding donors | 14% |
| CCC(NC(=O)c1cc(-c2ccccc2O)n[nH]1)c1cc(C)ccn1 (stereo not shown) | Lassa mammarenavirus | viral replication | Huh-7 | 10 µM, 72 h | – | remaining activity | 36% |
| O=C1Nc2ccc(Cl)cc2[C@@](C#CC2CC2)(C(F)(F)F)O1 | HIV-1 | viral replication, single-round infection | RT mutant M184V | – | – | EC50 | 0.0003 ± 0.0001 µM |
| C/C=C1\NC(=O)C(C(C)O)NC(=O)C(CCCN)NC(=O)C(CCO)NC(=O)CNC(=O)C(CCN)NC(=O)C(NC(=O)CC(O)CCCCCCCCCCC)COC(=O)C(C(O)CCl)NC(=O)C(C(O)C(=O)O)NC1=O (stereo not shown) | – | calcein leakage | DOPC/DOPG/CHOL liposomes | concentration not given, with: 20 wt% PEG-8000 | – | fusion time constant | 32 ± 20 min |
| CNC(=O)[C@@H](NC(=O)[C@H](CC(C)C)[C@H](O)C(=O)NO)C(C)(C)C | Daboia russelii venom proteases (SVMP) | protease activity, inhibitor | MH population | 0.1 µM, with: azocasein substrate | baseline: venom alone | remaining activity | 70.1% and 69.7% and 72.3% |
| COCCCNC(=O)C1CCN(Cc2cc3ccccc3n2Cc2cccc(Cl)c2)CC1 | SARS-CoV-2 | cytopathic effect, cell-based CPE | USA_WA1/2020 | round 2, 5-point dilution | – | AC50 | 12.6 µM |
| CC[C@H](C)[C@H](NC(=O)[C@H](Cc1ccc(O)cc1)NC(=O)[C@H](Cc1c[nH]c2ccccc12)NC(=O)[C@H](CC(C)C)NC(C)=O)C(=O)N[C@@H](CCCCN)C(N)=O | – | DSC | SOPC/cholesterol 7/3 bilayers | 15 mol%, pH 7.40 | – | transition enthalpy | 1.4 kcal/mol |
| FLHFLPRVFSAVGNI | human CD4 T cells | AIM | peptide | – | – | responding donors | 9% |
| Cc1cc(/C=C/C#N)cc(C)c1Nc1nc(Nc2ccc(/C=C/C#N)cc2)ncc1N | HIV-1 | viral replication, single-round infection | RT mutant G190A | – | – | EC50 | 0.0007 ± 0.0001 µM |
| YSRYRIGNYKLNTDH | human CD4 T cells | AIM | peptide | – | – | responding donors | 15% |
| Cl.Oc1ccc2[nH]cc(CCCCN3CC=C(c4ccccc4)CC3)c2c1 | HeLa | Ebola VLP entry | – | – | – | maximal inhibition | 90% |
| CC[C@H](C)[C@H](NC(=O)[C@H](C)NC(=O)[C@H](CO)NC(=O)[C@H](CC(=O)O)NC(=O)[C@H](CO)NC(=O)[C@H](Cc1ccccc1)NC(=O)[C@H](CS)NC(=O)[C@H](CC(=O)O)NC(=O)[C@H](Cc1ccccc1)NC(=O)[C@H](Cc1ccc(O)cc1)NC(=O)[C@H](Cc1ccc(O)cc1)NC(=O)[C@H](CC(C)C)NC(=O)[C@H](Cc1c[nH]cn1)NC(=O)[C@@H](NC(=O)[C@H](CC(C)C)NC(=O)[C@H](CCC(N)=O)NC(=O)[C@H](CC(=O)O)NC(=O)[C@H](C)NC(=O)[C@H](CC(C)C)NC(=O)[C@@H](N)CCC(=O)O)[C@@H](C)CC)C(=O)N[C@@H](CCCNC(=N)N)C(=O)N[C@@H](CCCCN)C(=O)N[C@@H](C)C(=O)N[C@@H](CC(C)C)C(=O)N[C@@H](CC(C)C)C(=O)NCC(=O)N[C@@H](Cc1c[nH]cn1)C(=O)N[C@H](C(=O)N[C@H](C(=O)N[C@@H](CO)C(=O)N1CCC[C@H]1C(=O)N[C@@H](CCCNC(=N)N)C(=O)N[C@@H](CS)C(=O)N[C@@H](CCC(=O)O)C(=O)N[C@@H](Cc1ccc(O)cc1)C(=O)N[C@@H](CCC(N)=O)C(=O)N[C@@H](C)C(=O)NCC(=O)N[C@@H](Cc1c[nH]cn1)C(=O)N[C@@H](CC(N)=O)C(=O)N[C@@H](CCCCN)C(=O)N[C@H](C(=O)O)C(C)C)C(C)C)[C@@H](C)CC | human Cul5 (1-384) GST fusion | GST pull-down | – | 20 µM, with: Zn(NO3)2 40 µM | baseline: no zinc | increase in binding | 8.4 fold |
| LGVYYHKNNKSWMES | human CD4 T cells | AIM | peptide | – | – | responding donors | 9% |
| CC(C)C[C@H](NC(=O)[C@H](Cc1ccccc1)NC(=O)c1cnccn1)B(O)O | rep main protease | reporter gene (Gaussia luciferase), inhibitor | – | 20 µM | – | inhibition | -4.59% |
| Nc1ncnc2c([C@@H]3N[C@H](CO)[C@@H](O)[C@H]3O)c[nH]c12 | Middle East respiratory syndrome-related coronavirus | viral replication | Vero C1008, Jordan N3 | 50 µM | – | inhibition | 50.1% |
| CCCC(=O)OCSc1ccccc1C(=O)NCCC(N)=O | HIV-1 | viral replication | human PBMC, subtype E 93TH051, CCR5-tropic clinical isolate | – | – | EC50 | 5.91 ± 2.39 µM |
| COc1c(/C=C/C(=O)c2ccc(O)cc2)ccc(O)c1O | Spike glycoprotein | binding, biolayer interferometry | – | – | – | Kd | 118 µM |
| CC(C)CC(=O)N[C@H](C(=O)N[C@H](C(=O)N[C@@H](CC(C)C)[C@@H](O)CC(=O)N[C@@H](C)C(=O)N[C@@H](CC(C)C)[C@@H](O)CC(=O)O)C(C)C)C(C)C | rep main protease | reporter gene (mKate2), inhibitor | – | 20 µM | – | inhibition | -0.884% |

| Molecule | target or system | assay | test system | conditions | how to read | endpoint | value |
| --- | --- | --- | --- | --- | --- | --- | --- |
| CN(C)c1ccc(C(=C2C=CC(=[N+](C)C)C=C2)c2ccccc2)cc1.CN(C)c1ccc(C(=C2C=CC(=[N+](C)C)C=C2)c2ccccc2)cc1.O=C(O)C(=O)O.O=C([O-])C(=O)O.O=C([O-])C(=O)O | HeLa | Ebola VLP entry | – | – | – | maximal inhibition | 95% |
| CCN(CC)CCNC(=O)c1ccc(-c2nc(CN3CCc4ccccc43)c(C)o2)cc1 | SARS-CoV-2 | cytopathic effect | USA_WA1/2020 | retest, 8-point, duplicates | – | maximum response | 91.9% |
| NC(=O)CCNC(=O)c1ccccc1S | HIV-1 | viral replication | human PBMC, subtype F 93BR029, CCR5-tropic clinical isolate | – | – | EC50 | 3.38 ± 0.85 µM |
| Cn1cnc(Cn2c(=O)[nH]/c(=N\c3cc4cn(C)nc4cc3Cl)n(Cc3cc(F)c(F)cc3F)c2=O)n1 | – | – | human, moderate renal impairment | oral, 375 mg, hypertriglyceridaemia TEAE, Moderate severity | – | patients with adverse event | 0% |
| CC(=O)O[C@@H]1[C@@H](O)[C@H](O[C@H]2CC[C@]34C[C@]35CC[C@]3(C)[C@@H]([C@@]6(C)CC[C@@H](C(C)(C)O)O6)[C@@H](O)C[C@@]3(C)[C@@H]5C[C@H](O[C@@H]3O[C@H](CO)[C@@H](O)[C@H](O)[C@H]3O)[C@H]4C2(C)C)OC[C@H]1O | Spike glycoprotein | biolayer interferometry | – | – | – | Kd | 168 µM |
| COc1ccc(CC(=O)NC2CCN(Cc3ccc(-c4ccccc4OC)cc3)C2)cc1 (stereo not shown) | SARS-CoV-2 | cytopathic effect | USA_WA1/2020 | retest, 8-point, duplicates | – | maximum response | 48.3% |
| CCOP(=S)(OCC)Oc1nc(Cl)c(Cl)cc1Cl | rat CYP2D | bufuralol 1'-hydroxylation | liver microsomes | concentration not given | – | Vmax | 0.7 ± 0.11 nmol/min/mg protein |
| CCc1c(C(=O)C(N)=O)c2c(OCC(=O)O)cccc2n1Cc1ccccc1 | C2C12 | – | – | 1 µM, with: MH venom | baseline: venom alone | viability difference | 5.08% |
| NTNSSPDDQIGYY | – | AIM | peptide, CD8+ T cells from PBMC, human donors | HLA-A*01:01 restricted, unit not given | baseline: positive over tested donors | frequency of responding donors | 33 |
| COc1ccc(C[C@@H]2NC(=O)[C@@H](NC(=O)Cc3ccc4c(c3)OCO4)Cc3ccc(cc3)OC[C@H](CC(C)C)NC(=O)CN(CC3CC3)C(=O)[C@@H](C)NC2=O)cc1 | Lassa mammarenavirus | viral replication | Huh-7 | 10 µM, 72 h | – | remaining activity | 31% |
| Cn1c(Cn2ccc(C(F)(F)F)c(Oc3cc(Cl)cc(C#N)c3)c2=O)n[nH]c1=O | HIV-1 | viral replication, single-round infection | RT mutant K101P | – | – | EC50 | 0.001 ± 0.0003 µM |
| COc1ccc2cc3[n+](cc2c1OC)CCc1cc2c(cc1-3)OCO2 | SARS-CoV-2 spike protein | – | Vero C1008 | 10 µg/mL | – | inhibition | 94 ± 2.1% |
| COc1cccc(-c2ccc(CN3CCCC(c4nc5ccc(C)cc5c(=O)[nH]4)C3)cc2)c1 (stereo not shown) | SARS-CoV-2 | cytopathic effect | USA_WA1/2020 | round 2, 5-point | – | maximum response | 100% |
| KTDGTLMIERFVSLA | human CD4 T cells | AIM | peptide | – | – | responding donors | 7% |
| CC[C@H](C)[C@H](NC(=O)[C@H](CC(C)C)NC(=O)[C@H](Cc1c[nH]c2ccccc12)NC(=O)[C@H](CCC(N)=O)NC(=O)[C@@H](NC(=O)[C@H](Cc1ccccc1)NC(=O)[C@H](C)NC(=O)[C@H](CCCCNC(=O)COCCOCCNC(=O)COCCOCCNC(=O)CC[C@H](NC(=O)CCCCCCCCCCCCCCCCCCC(=O)O)C(=O)O)NC(=O)[C@H](CCC(N)=O)NC(=O)[C@H](C)NC(=O)[C@@H](NC(=O)[C@H](CCCCN)NC(=O)[C@H](CC(=O)O)NC(=O)[C@H](CC(C)C)NC(=O)C(C)(C)NC(=O)[C@@H](NC(=O)[C@H](CO)NC(=O)[C@H](Cc1ccc(O)cc1)NC(=O)[C@H](CC(=O)O)NC(=O)[C@H](CO)NC(=O)[C@@H](NC(=O)[C@H](Cc1ccccc1)NC(=O)[C@@H](NC(=O)CNC(=O)[C@H](CCC(=O)O)NC(=O)C(C)(C)NC(=O)[C@@H](N)Cc1ccc(O)cc1)[C@@H](C)O)[C@@H](C)O)[C@@H](C)CC)[C@@H](C)CC)C(C)C)C(=O)N[C@@H](C)C(=O)NCC(=O)NCC(=O)N1CCC[C@H]1C(=O)N[C@@H](CO)C(=O)N[C@@H](CO)C(=O)NCC(=O)N[C@@H](C)C(=O)N1CCC[C@H]1C(=O)N1CCC[C@H]1C(=O)N1CCC[C@H]1C(=O)N[C@@H](CO)C(N)=O | – | measured: Headache | healthy subjects | 5/5/8/10 mg titrated, multiple ascending dose | – | subjects with adverse events | 28.6% |
| CCOc1ccc(NC(=O)c2cnn(-c3ccc(C)c(Cl)c3)c2C2CCNCC2)cc1 | SARS-CoV-2 | cytopathic effect | USA_WA1/2020 | retest, 8-point, duplicates | – | efficacy | 30.1% |
| Cc1nc2n(n1)CC(=O)N[C@@H](C(C)C)CN(C(=O)CCC1(C)CC1)CC(=O)N[C@@H](CC(C)C)c1nc(cs1)C(=O)N[C@H]2Cc1ccccc1 | Lassa mammarenavirus | viral replication | Huh-7 | 10 µM, 72 h | – | remaining activity | 82% |
| SVLYNSASFSTFKCY | human CD4 T cells | AIM | peptide | – | – | responding donors | 8% |
| COc1ccc(Cl)cc1NC(=O)CSc1nc2ccccc2nc1N1CCCCC1 | SARS-CoV-2 | cytopathic effect | USA_WA1/2020 | round 1, 5-point | – | efficacy | 101% |
| GAVILRGHLRIAGHH | human CD4 T cells | AIM | peptide | – | – | responding donors | 8% |
| COc1ccc(CCNC(=O)c2cc(Nc3ccccc3)nc3ccccc23)cc1OC | SARS-CoV-2 | cytopathic effect | USA_WA1/2020 | retest, 8-point, duplicates | – | maximum response | 2.56% |

For quick reference, copied from above:
| Molecule | target or system | assay | test system | conditions | how to read | endpoint | value |
| --- | --- | --- | --- | --- | --- | --- | --- |
| Nc1ncnc2c([C@@H]3N[C@H](CO)[C@@H](O)[C@H]3O)c[nH]c12 | Middle East respiratory syndrome-related coronavirus | viral replication | Vero C1008, Jordan N3 | 50 µM | – | inhibition | 50.1% |
| Cl.Oc1ccc2[nH]cc(CCCCN3CC=C(c4ccccc4)CC3)c2c1 | HeLa | Ebola VLP entry | – | – | – | maximal inhibition | 90% |
| CCN(CC)CCNC(=O)c1ccc(-c2nc(CN3CCc4ccccc43)c(C)o2)cc1 | SARS-CoV-2 | cytopathic effect | USA_WA1/2020 | retest, 8-point, duplicates | – | maximum response | 91.9% |
